Measured values of several laboratories.
Each line is one published result; not all experiments were run side by side. Several values in a cell are separate wells, animals, samples, runs or records. ± marks the error that the study gave.

COCC1CN(C2CCN(c3cc(OC)c(Nc4ncc(Br)c(Nc5ccc6c(c5P(C)(C)=O)OCCO6)n4)cc3C)CC2)C1
Tmax (EGFR-mutant NSCLC patients, plasma; oral, 30 mg single dose, median): 2.96 h

O=C(Nc1cnccc1-c1ccc([18F])cc1)c1ccnc(NC(=O)C2CC2)c1
SUV (ex vivo gamma counting; GSK-3β transgenic mice, late-stage, urine; intravenous, 120 min, mean, P-gp inhibitor pretreatment, added: tariquidar 15 mg/kg iv): 6.42

CN(O)C(=O)CCC(=O)NCCCN(CCCCN(CCCNC(=O)CCC(=O)N(C)O)C(=O)CCC(=O)N(C)O)C(=O)CCC(=O)N(C)O.[89Zr]
intact complex (radio-TLC; aqueous buffer; 7 d, pH 7.2, 37 °C, 89Zr-labelled complex, added: FeCl3 100-fold excess): 62.3 ± 0.3%

N[C@@H](CCC(=O)N[C@H]1CSSC[C@@H](C(=O)NCC(=O)O)NC(=O)CC[C@@H](C(=O)O)NC1=O)C(=O)O
urinary concentration (LC-HRMS; human, urine; concentration not given): 7.7 µM

O=C1CCC(N2Cc3cc(C(=O)O)c(F)cc3C2=O)C(=O)N1 (centres unmarked)
plasma concentration (cynomolgus monkey, male; oral, 0.3 mg/kg parent drug, 4 h): 5.2 ± 4 ng/mL

O=C(Nc1cnccc1-c1ccc([18F])nc1)c1ccnc(NC(=O)C2CC2)c1
SUV (mice, transgenic, GSK-3β, early-stage, pancreas; intravenous, dose not given, 120 min, added: tariquidar 15 mg/kg i.v. pre-dose): 0.246

O=C(O)/C=C\c1cc2ccoc2cc1O[C@@H]1O[C@H](CO)[C@@H](O)[C@H](O)[C@H]1O
Cmax decrease (rat, plasma; oral, dose not given, dosed as combined Eu and Pc extracts; reference: single extracts): 259 ± 144 ng/mL

C/C(N)=N/C(=N\S(=O)(=O)c1ccc(C(F)(F)F)cc1)N1C[C@H](c2ccccc2)C(c2ccc(Cl)cc2)=N1
half-life (C57BL/6 mouse, muscle; intravenous, 10 mg/kg): 2.9 h

Cc1ccc(OCC(=O)N(Cc2cccs2)c2ccn[nH]2)cc1
remaining compound (dog plasma; 750 ng/mL, 1 h, 37 °C, unit not given; reference: time zero): 102

C=C(NC(=O)c1csc(-c2nc3c(cc2O)-c2nc(cs2)C(=O)NC(C(C)O)C(=O)NC(=C(C)OC)c2nc(cs2)C(=O)NC2c4nc(cs4)C(=O)NC(COC(=O)c4c5c6c(cccc6n4O)COC(=O)C(OC4CC(C)(O)C(N(C)C)C(C)O4)C2OC5)c2nc-3cs2)n1)C(N)=O (centres unmarked)
half-life (Sprague-Dawley rat, both sexes, plasma; intravenous infusion, 6 mg/kg, multiple doses, day 1): 4.86 h

C=CC(=O)Nc1cc(Nc2nccc(-c3c[nH]c4ccccc34)n2)c(OC)cc1N(C)CCN(C)C
recovery (storage stability; human plasma; 72 h, -80 °C, high QC level): 90.2%

CC(C)C[C@H](NC(=O)[C@@H](CCCCNC(=O)[C@@H](Cc1ccccc1)NC(=O)CCCCCCCNC(=O)CN1CCN(CC(=O)O)CCN(CC(=O)O)CCN(CC(=O)O)CC1)NC(=O)[C@H](Cc1ccc(O)cc1)NC(=O)[C@H](CO)NC(=O)[C@H](Cc1c[nH]c2ccccc12)NC(=O)[C@H](Cc1c[nH]cn1)NC(=O)[C@@H]1CCC(=O)N1)C(=O)N[C@@H](CCCNC(=N)N)C(=O)N1CCC[C@H]1C(=O)NCC(N)=O [indium-111 labelled]
intact radiopeptide in urine (radio-HPLC; nude mice, DU-145 tumour-bearing, urine; intravenous, 18.5 MBq, 1 h; reference: radioactivity): ~60%

CC(C)[C@H](NC(=O)[C@H](Cc1c[nH]c2ccccc12)NC(=O)[C@H](CCCNC(=N)N)NC(=O)[C@H](CCCNC(=N)N)NC(=O)[C@@H](NC(=O)[C@@H](NC(=O)[C@H](CCCNC(=N)N)NC(=O)[C@@H](NC(=O)[C@@H](NC(=O)[C@H](CCCNC(=N)N)NC(=O)[C@H](CCCNC(=N)N)NC(=O)[C@@H](NC(=O)[C@H](Cc1c[nH]c2ccccc12)NC(=O)[C@H](CCCNC(=N)N)NC(=O)[C@H](CCCNC(=N)N)NC(=O)[C@@H](NC(=O)[C@H](CCCNC(=N)N)NC(=O)[C@H](CCCNC(=N)N)NC(=O)[C@@H](NC(=O)[C@H](Cc1c[nH]c2ccccc12)NC(=O)[C@H](CCCNC(=N)N)NC(=O)[C@@H](N)CCCNC(=N)N)C(C)C)C(C)C)C(C)C)C(C)C)C(C)C)C(C)C)C(C)C)C(=O)N[C@@H](CCCNC(=N)N)C(=O)N[C@@H](CCCNC(=N)N)C(=O)O
glucose (CD1 mouse, plasma; intravenous, 15 mg/kg, 16 h, [14C]-labelled compound): 160 mg/dL

Cc1n[nH]c(C)c1CCCOc1cc(C(=O)NCCCCC(NC(=O)CN2CCN(CC(=O)[O-])CCN(CC(=O)[O-])CCN(CC(=O)[O-])CC2)C(=O)NCC2CCC(C(=O)NC(Cc3ccc4ccccc4c3)C(=O)NCCCCC(NC(=O)NC(CCC(=O)O)C(=O)O)C(=O)O)CC2)ccc1F.[68Ga+3] (centres unmarked)
mean tumour uptake (micro-PET/CT; mouse 22Rv1 xenograft, tumour; 1 h post-injection): 9.57 ± 0.94 %ID/g

CCCCCC(=O)[O][Pt]([Cl])([Cl])[O]C(=O)CCCCC.N.N
distribution half-life (ICP-MS, item: platinum; nude mice, blood; intravenous, 1.76 mg/kg): 0.18 h and 0.186 h

OCCCN1CC[C@@H]2C[C@H]1c1cc(-c3ccc(C(F)(F)F)cc3)ccc12
Tmax (brain; ip, concentration not given): 2 h

Nc1nc(-c2ccccc2)nc2[nH]nc(Nc3ccc(F)cc3)c12
recovery (plasma; time not given, plasma protein binding): 68%

CC(C)(O)c1ncc([S@](N)(=O)=NC(=O)Nc2c3c(cc4c2CCC4)CCC3)s1
freeze-thaw stability (human urine; -20 °C or below): 3 cycles

CC(=O)N1CCC[C@H]1C(=O)N[C@@H](CC(C)C)C(=O)N[C@@H](Cc1cncn1CCCCCCCCc1ccccc1)C(=O)N[C@@H](CO)C(=O)N[C@H](C(N)=O)[C@@H](C)OP(=O)(O)O
recovery (Caco-2 monolayer; 10 µM, 2 h): 69.4%

CCC(CC)CNC(=N)NC(=N)NCCCCCCNC(=N)NC(=N)NCC(CC)CC
scaled CLint (metabolic stability; dog, liver microsomes; 2 µM): 1.83 mL/min/kg

O=C(CCc1ccc(CNC(C(=O)OC2CCCC2)C2CCCCC2)cn1)NO (centres unmarked)
AUC(0-t) ratio (healthy male humans, plasma; oral, 40 mg, single dose; reference: fed over fasted): 0.94

COc1ccc([C@@H]2CC(=O)c3c(O)cc(O[C@@H]4O[C@H](CO)[C@@H](O)[C@H](O)[C@H]4O[C@@H]4O[C@@H](C)[C@H](O)[C@@H](O)[C@H]4O)cc3O2)cc1O
Cmax (Sprague-Dawley rat, male, obese, plasma; oral, 100 mg/kg): 3.72 ± 1.16 ng/mL

CCCCN1C(=O)c2cccc3c(NCCCCCN4CCOCC4)ccc(c23)C1=O
fluorescence quantum yield (ethylene glycol): 0.73

CCCC[C@H](OC(C)=O)c1ccccc1C(=O)O
MRT(0-inf) (Sprague-Dawley rats, both sexes, whole blood; intravenous, 1.25 mg/kg single dose): 5.2 ± 2.5 h

CC[C@H](C)[C@@H]1NC(=O)[C@H](Cc2ccc(O)cc2)NC(=O)CCCSC[C@@H](C(=O)N(CC(=O)N[C@@H](CC(C)C)C(=O)NCC(N)=O)Cc2ccc(F)cc2)NC(=O)[C@H](CC(N)=O)NC(=O)[C@H](CCC(N)=O)NC1=O
drug-related dry mouth (human; intranasal, 200 µg repeated doses): 50%

CCCCN1C(=O)c2cccc3c(NCCCCN4CCOCC4)ccc(c23)C1=O
molar extinction coefficient (dioxane): 6400 M⁻¹ cm⁻¹

Cc1c(C(N)=O)cc(Cl)c2c1O[C@@](C)([C@H]1CC[C@H](N(C)C)CC1)O2
urinary excretion (radiochromatography; human, urine; oral, 200 mg; reference: dose): 0.1% and 0.5% and 0.4% and 1.1%

CCC1CNC(CC)CN(C(C(=O)[O-])c2ccc(C(=O)[O-])cc2)C(CC)CN(CC(=O)[O-])C(CC)CN1.[Mn+2] (centres unmarked)
Mn content (ICP-MS; BALB/c mouse, brain; intravenous, 0.05 mmol/kg, 1440 min, without anaesthesia): 0.75 ± 0.18 µg/g

CCCCN1C(=O)c2cccc3c(NCCCCCCCCN4CCOCC4)ccc(c23)C1=O
molar extinction coefficient (dioxane): 11200 M⁻¹ cm⁻¹

[123I]c1ccc2nc(-c3ccc(-n4ccnn4)nc3)cn2c1
tissue uptake (Wistar rat, male, adrenals; intravenous, 4 MBq, 3 h): 0.687 ± 0.346 %ID/g

CCCCN1C(=O)c2cccc3c(NCCCN4CCOCC4)ccc(c23)C1=O
molar extinction coefficient (Methanol): 5160 M⁻¹ cm⁻¹

CCC(C(=O)Nc1ccc(C(N)=O)c(F)c1)n1cc(OC)c(-c2cc(Cl)ccc2-n2cc(C(F)(F)F)nn2)cc1=O (centres unmarked)
mild adverse events (healthy male humans; 25 mg, ASD vs IR, fasted): 13.3%

Some of these lines once more:
COCC1CN(C2CCN(c3cc(OC)c(Nc4ncc(Br)c(Nc5ccc6c(c5P(C)(C)=O)OCCO6)n4)cc3C)CC2)C1
Tmax (EGFR-mutant NSCLC patients, plasma; oral, 30 mg single dose, median): 2.96 h

O=C(Nc1cnccc1-c1ccc([18F])cc1)c1ccnc(NC(=O)C2CC2)c1
SUV (ex vivo gamma counting; GSK-3β transgenic mice, late-stage, urine; intravenous, 120 min, mean, P-gp inhibitor pretreatment, added: tariquidar 15 mg/kg iv): 6.42

CN(O)C(=O)CCC(=O)NCCCN(CCCCN(CCCNC(=O)CCC(=O)N(C)O)C(=O)CCC(=O)N(C)O)C(=O)CCC(=O)N(C)O.[89Zr]
intact complex (radio-TLC; aqueous buffer; 7 d, pH 7.2, 37 °C, 89Zr-labelled complex, added: FeCl3 100-fold excess): 62.3 ± 0.3%

N[C@@H](CCC(=O)N[C@H]1CSSC[C@@H](C(=O)NCC(=O)O)NC(=O)CC[C@@H](C(=O)O)NC1=O)C(=O)O
urinary concentration (LC-HRMS; human, urine; concentration not given): 7.7 µM

O=C1CCC(N2Cc3cc(C(=O)O)c(F)cc3C2=O)C(=O)N1 (centres unmarked)
plasma concentration (cynomolgus monkey, male; oral, 0.3 mg/kg parent drug, 4 h): 5.2 ± 4 ng/mL
